Assay results collected from several papers.
Protocols differ between the studies behind these lines.
UniProt Q9UIA9, sequence (whole entry, looked up): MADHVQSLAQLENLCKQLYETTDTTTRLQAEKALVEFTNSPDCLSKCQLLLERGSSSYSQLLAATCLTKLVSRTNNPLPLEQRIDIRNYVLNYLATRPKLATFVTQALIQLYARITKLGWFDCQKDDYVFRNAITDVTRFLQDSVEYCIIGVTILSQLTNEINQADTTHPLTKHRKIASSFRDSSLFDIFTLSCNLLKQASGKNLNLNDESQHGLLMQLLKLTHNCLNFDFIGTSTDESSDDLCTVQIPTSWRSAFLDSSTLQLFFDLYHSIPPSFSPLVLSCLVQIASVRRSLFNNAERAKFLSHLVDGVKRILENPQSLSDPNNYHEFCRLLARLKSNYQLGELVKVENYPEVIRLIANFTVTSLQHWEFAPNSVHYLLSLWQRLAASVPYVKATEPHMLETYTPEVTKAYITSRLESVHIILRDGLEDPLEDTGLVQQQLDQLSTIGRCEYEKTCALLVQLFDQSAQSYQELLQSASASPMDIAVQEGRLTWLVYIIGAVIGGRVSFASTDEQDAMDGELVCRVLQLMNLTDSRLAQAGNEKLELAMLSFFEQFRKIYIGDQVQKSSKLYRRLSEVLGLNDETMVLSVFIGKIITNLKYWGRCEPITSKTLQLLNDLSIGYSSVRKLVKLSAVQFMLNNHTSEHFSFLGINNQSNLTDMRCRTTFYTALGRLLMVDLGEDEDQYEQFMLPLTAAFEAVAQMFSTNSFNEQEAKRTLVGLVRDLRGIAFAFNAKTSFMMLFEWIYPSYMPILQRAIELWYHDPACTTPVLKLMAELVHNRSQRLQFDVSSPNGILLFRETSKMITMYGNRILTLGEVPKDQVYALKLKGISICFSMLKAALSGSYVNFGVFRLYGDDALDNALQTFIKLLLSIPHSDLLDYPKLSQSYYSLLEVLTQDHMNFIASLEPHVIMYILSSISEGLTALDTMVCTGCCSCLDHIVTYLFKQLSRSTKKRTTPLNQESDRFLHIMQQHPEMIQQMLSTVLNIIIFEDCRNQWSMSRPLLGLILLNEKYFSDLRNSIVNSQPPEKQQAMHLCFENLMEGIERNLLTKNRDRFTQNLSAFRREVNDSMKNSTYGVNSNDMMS
UniProt P46663, sequence (whole entry, looked up): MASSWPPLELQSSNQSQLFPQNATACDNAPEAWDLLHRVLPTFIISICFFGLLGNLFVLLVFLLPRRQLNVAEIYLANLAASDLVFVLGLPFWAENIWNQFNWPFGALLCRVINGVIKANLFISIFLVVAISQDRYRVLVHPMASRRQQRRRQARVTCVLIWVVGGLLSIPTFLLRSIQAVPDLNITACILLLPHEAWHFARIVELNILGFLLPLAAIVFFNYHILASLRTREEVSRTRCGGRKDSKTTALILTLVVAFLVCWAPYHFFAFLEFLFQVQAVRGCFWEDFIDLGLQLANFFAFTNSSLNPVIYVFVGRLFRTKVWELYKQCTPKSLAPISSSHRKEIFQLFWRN
UniProt Q9NS67, sequence (whole entry, looked up): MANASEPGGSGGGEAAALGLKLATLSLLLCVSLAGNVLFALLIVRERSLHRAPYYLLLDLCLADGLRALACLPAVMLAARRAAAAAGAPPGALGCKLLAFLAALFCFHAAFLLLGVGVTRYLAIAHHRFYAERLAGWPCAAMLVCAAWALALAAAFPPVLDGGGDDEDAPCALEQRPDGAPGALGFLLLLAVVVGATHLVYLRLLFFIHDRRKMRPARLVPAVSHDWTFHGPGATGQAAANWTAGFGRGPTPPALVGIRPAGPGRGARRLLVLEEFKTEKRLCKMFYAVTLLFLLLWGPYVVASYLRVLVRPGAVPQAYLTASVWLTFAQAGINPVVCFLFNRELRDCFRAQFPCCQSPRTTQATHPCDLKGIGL
UniProt Q13255, sequence (whole entry, looked up): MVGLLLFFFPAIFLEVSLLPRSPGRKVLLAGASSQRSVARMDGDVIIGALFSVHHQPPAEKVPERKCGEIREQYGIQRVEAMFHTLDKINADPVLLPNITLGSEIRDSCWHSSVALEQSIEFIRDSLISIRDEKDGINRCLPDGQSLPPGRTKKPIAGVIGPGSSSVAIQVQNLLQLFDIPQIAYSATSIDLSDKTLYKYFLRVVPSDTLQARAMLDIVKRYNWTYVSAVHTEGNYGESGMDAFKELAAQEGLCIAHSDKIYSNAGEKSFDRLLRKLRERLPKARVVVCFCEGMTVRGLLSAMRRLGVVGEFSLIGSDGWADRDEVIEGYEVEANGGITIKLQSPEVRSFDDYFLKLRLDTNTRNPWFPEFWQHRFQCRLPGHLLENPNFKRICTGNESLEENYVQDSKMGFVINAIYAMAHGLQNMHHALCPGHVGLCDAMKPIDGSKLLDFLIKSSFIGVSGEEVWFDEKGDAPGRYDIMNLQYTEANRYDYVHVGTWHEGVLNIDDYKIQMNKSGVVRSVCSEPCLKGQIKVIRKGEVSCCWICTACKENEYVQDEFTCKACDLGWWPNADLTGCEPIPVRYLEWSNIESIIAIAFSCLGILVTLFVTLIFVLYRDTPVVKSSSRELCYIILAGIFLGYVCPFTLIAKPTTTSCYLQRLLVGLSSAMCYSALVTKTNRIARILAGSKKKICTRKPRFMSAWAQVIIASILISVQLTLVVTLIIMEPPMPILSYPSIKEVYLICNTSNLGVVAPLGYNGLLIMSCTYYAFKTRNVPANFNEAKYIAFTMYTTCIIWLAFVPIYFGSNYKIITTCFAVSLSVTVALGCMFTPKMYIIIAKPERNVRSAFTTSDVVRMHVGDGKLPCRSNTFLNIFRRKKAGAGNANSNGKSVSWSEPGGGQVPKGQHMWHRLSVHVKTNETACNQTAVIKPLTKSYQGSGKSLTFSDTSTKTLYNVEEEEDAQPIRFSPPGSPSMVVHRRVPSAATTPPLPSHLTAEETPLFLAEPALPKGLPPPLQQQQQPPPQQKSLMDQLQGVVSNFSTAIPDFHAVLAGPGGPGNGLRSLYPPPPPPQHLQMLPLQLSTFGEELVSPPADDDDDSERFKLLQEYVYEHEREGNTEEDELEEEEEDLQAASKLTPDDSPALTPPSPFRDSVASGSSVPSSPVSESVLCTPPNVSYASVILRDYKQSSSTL
UniProt P31749, sequence (whole entry, looked up): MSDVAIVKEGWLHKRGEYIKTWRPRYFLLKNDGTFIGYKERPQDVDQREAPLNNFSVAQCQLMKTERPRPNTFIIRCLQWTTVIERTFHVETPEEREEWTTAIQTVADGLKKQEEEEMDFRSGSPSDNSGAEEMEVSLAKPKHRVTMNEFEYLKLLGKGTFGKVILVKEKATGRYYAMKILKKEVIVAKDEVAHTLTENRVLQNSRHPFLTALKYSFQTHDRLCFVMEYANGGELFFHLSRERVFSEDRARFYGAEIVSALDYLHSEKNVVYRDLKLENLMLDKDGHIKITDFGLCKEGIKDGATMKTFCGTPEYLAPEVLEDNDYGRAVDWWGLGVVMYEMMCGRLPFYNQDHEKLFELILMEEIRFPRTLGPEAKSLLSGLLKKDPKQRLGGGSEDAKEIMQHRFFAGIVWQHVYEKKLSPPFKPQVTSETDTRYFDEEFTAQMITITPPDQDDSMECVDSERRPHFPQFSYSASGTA
UniProt O70528, sequence (whole entry, looked up): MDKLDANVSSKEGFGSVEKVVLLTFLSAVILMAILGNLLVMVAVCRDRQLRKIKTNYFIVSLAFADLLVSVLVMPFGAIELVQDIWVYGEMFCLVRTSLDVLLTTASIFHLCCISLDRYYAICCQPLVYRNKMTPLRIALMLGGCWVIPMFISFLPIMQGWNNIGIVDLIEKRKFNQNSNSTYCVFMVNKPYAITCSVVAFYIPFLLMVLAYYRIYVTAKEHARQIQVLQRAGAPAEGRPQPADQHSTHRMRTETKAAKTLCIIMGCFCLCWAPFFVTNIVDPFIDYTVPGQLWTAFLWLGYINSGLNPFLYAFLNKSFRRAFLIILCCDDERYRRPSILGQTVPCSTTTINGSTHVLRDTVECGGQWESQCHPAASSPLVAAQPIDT

COc1cc(N)c(Cl)cc1C(=O)NC1CN2CCC1CC2 (stereo not drawn): “log2 fold change” 0.565 (Probable G-protein coupled receptor 27 (Homo sapiens, UniProt Q9NS67); β-arrestin recruitment, TANGO luminescence, item: GPR27; concentration not given; reference: basal luminescence).
The inhibition of COc1ccc(N2C(=O)N(c3c(C)cccc3Cl)Cc3cnc(Nc4ccc(C5CCN(C)CC5)cc4OC)nc32)nc1 is reported as 2.82% (RAC-alpha serine/threonine-protein kinase (AKT1, Homo sapiens, UniProt P31749); kinase activity; 0.5 µM).
C[C@H]1CN(c2n[nH]c3nc(N[C@H]4CC[C@H](NS(=O)(=O)CCC(F)(F)F)CC4)ncc23)CCO1 gave a remaining binding of 1.13 (Exportin-7 (Homo sapiens, UniProt Q9UIA9); Kinobeads competition, item: XPO7; 0.8 µM, unit not given; reference: vehicle).
With O=C(Nc1cccnn1)N1CCC(=Cc2cccc(Oc3ccc(C(F)(F)F)cn3)c2)CC1 the inhibition was 29.7% (Abhydrolase domain-containing protein 11 (Rattus norvegicus, UniProt D3ZXK4); probe labelling, inhibitor, competitive ABPP with azido-FP probe, item: Abhd11; rat brain soluble fraction; 0.01 µM).
For O=C(c1ccc(Cl)cc1)N1CCN2C(=O)N(OC(=O)N3CCOc4ccccc43)C(=O)C2C1 (stereo not drawn), the median ratio was 1.09 (Kallikrein-6 (Homo sapiens, UniProt Q92876); enzyme activity, inhibitor, MS-based ABPP; SW-620 conditioned medium; 10 µM, 1 h, 37 °C; reference: compound over DMSO, lower = stronger inhibition).
For O=C(Nc1cnccc1Cl)N1CCN(Cc2ccc3c(c2)OC(F)(F)O3)CC1, “inhibition of binding” read -5% (5-hydroxytryptamine receptor 4 (HTR4, Cavia porcellus, UniProt O70528); radioligand binding; 10 µM, added: [3H]GR-113808).
[2H]c1c([2H])c([C@]2([2H])CCCN2C(=O)C(C)(C)Oc2ccc3cn[nH]c3c2)c([2H])c([2H])c1C([2H])([2H])[2H] has a remaining binding of 92% (Serine/threonine-protein kinase pim-3 (PIM3, Homo sapiens, UniProt Q86V86); KINOMEscan; 1 µM; reference: DMSO control).
CN(C(=O)n1cnc(-c2ccc[n+]([O-])c2)c1)C1CCCCC1 gave an inhibition of 16% (B1 bradykinin receptor (BDKRB1, Homo sapiens, UniProt P46663); radioligand binding; 50 µM, added: [3H]des-Arg10-kallidin).
For CN1CCN(c2cc(-c3ccncc3)c(-c3ccc4ccccc4c3)nn2)CC1, the inhibition was 5.2% (Metabotropic glutamate receptor 1 (GRM1, Homo sapiens, UniProt Q13255); antagonist, FLIPR; 10 µM).

Excerpt of the above:
For CN1CCN(c2cc(-c3ccncc3)c(-c3ccc4ccccc4c3)nn2)CC1, the inhibition was 5.2% (Metabotropic glutamate receptor 1 (GRM1, Homo sapiens, UniProt Q13255); antagonist, FLIPR; 10 µM).
